Measurements gathered from unrelated publications.
Parts stem from different laboratories: compare values within a part only. Values joined by “and” are separate records of one study, mostly repeats; a detail may differ. Substitutions count along the parent as printed.

Sample 1 — target: Sox, HMG box (Pigoraptor chileana); method: Spec-seq; form: double-stranded DNA, one strand shown; medium: in vitro; concentration: not given; notes: whole probe, mean of replicates; baseline: not given; reading: lower = stronger binding; all sequences stand within: GAGTCGTCTCGTCAGCAC … CCGTAGAGCACTCAGGTC
Construct (chain): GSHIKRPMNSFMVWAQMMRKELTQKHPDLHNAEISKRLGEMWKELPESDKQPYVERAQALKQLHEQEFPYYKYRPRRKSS
`CTGTGTT`: “relative binding energy” -0.625 ln ratio.
For `TATTGTT`, “relative binding energy” read -3.28 ln ratio.
`GGACGTT` — result for “relative binding energy”: 1.69 ln ratio.
Under “relative binding energy”, `CATGAAA` is recorded as 0.215 ln ratio.
For `TCAAGTT`, “relative binding energy” read 0.448 ln ratio.
`CATTCGA`: “relative binding energy” 0.552 ln ratio.
`CATGACA`: “relative binding energy” 0.341 ln ratio.
Under “relative binding energy”, `CCGGGTT` is recorded as 1.25 ln ratio.

Sample 2 — target: CREBL2, bZIP domain (human); method: DHFR protein complementation; medium: yeast; baseline: wild-type JUN-FOS pair; reading: higher = stronger binding
Notes: single substitutions, most at no-binding floor
Parent: JUN, bZIP domain (human); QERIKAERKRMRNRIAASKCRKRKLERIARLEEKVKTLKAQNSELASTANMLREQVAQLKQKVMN; partner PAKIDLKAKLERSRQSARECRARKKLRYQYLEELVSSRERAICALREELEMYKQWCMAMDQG
`Q55V` has a binding fitness of -1.62 natural log.
`Q41P` has a binding fitness of -1.54 natural log.
For `N42D`, the binding fitness was -1.52 natural log.
The binding fitness of `V35F` is reported as -1.47 natural log.
`E54T` gave a binding fitness of -1.11 natural log.
`K36T` gave a binding fitness of -1.5 natural log.
`T37P` has a binding fitness of -1.46 natural log.
With `L52G` the binding fitness was -1.53 natural log.

Sample 3 — method: competition protein-binding microarray; form: double-stranded DNA, one strand shown; medium: in vitro; concentration: 2 µM; added: Cbf1 competitor, 0.05 µM; reading: higher = stronger binding
Target: Phosphate system positive regulatory protein PHO4, full length, GST-tagged (PHO4, Saccharomyces cerevisiae, UniProt P07270, residues 1-312)
Notes: whole 60-bp probe, lowest competitor level
Construct (chain): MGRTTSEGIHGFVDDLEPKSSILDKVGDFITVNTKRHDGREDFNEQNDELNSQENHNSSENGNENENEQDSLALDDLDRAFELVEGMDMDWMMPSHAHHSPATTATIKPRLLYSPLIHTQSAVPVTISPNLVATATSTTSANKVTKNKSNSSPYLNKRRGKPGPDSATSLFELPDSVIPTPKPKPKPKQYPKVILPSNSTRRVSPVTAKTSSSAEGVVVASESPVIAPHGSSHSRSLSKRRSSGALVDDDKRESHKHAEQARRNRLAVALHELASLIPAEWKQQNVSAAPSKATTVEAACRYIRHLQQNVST
With `TGCAGAAGGGGACGATAATAAGACCAAATATTCTTGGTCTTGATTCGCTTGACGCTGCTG` the fluorescence intensity was 2980 a.u.
The fluorescence intensity of `CTTTCCCGATCTTGTCACAGGACTTTAGCACATTTGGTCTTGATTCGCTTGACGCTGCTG` is reported as 4170 a.u.
`GTCTTGTCTCATTGACAGGTGGGTGTCCCCACTTCAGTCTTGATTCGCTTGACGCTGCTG` has a fluorescence intensity of 5840 a.u.
`GTCTTGTCTCATTGGACGGTGGGTGTCCCCACTTCAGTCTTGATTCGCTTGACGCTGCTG` gave a fluorescence intensity of 5220 a.u.
For `CTTTCCCGATCTTGTCGCGTGGGTGTAGCACATTTGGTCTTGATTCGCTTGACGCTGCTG`, the fluorescence intensity was 9750 a.u.
For `TAGCCCCAAAATCCACACGTGACGGAAATGATTTAGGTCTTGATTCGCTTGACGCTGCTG`, the fluorescence intensity was 13900 a.u.
`AAATTACTAAGTTTTCACGTGTCCTACCCCGTATGAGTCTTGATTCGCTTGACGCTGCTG` has a fluorescence intensity of 12100 a.u.
The fluorescence intensity of `AAATTACTAAGTTGGACTGTGGGTGACGCCGTATGAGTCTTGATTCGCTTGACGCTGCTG` is reported as 4210 a.u.

Other studies, line by line
Under “metabolite peak area”, `CC(=O)N[C@@H](Cc1c[nH]c2ccccc12)C(=O)N[C@@H](CCC(=O)C=[N+]=[N-])C(=O)OC(C)C` is recorded as 667000 a.u. and 1.26e+06 a.u. and 463000 a.u. and 167000 a.u. and 395000 a.u. and 614000 a.u. (UPLC-MS/MS metabolomics, refers to: dihydroorotate; EL4, C57BL/6 CES1-/- mice, EL4 tumour, tumour; subcutaneous, 0.3 mg/kg/day DON equivalent, 5 days; higher = more metabolite).

A few entries again (sample 2):
The binding fitness of `V35F` is reported as -1.47 natural log.
`E54T` gave a binding fitness of -1.11 natural log.
`K36T` gave a binding fitness of -1.5 natural log.
`T37P` has a binding fitness of -1.46 natural log.
